Assay results from different studies.
Numbered parts are unrelated; each lists some results of a single study. Changes are numbered by the printed parent chain.
UniProt Q9BUB5, sequence (whole entry, looked up): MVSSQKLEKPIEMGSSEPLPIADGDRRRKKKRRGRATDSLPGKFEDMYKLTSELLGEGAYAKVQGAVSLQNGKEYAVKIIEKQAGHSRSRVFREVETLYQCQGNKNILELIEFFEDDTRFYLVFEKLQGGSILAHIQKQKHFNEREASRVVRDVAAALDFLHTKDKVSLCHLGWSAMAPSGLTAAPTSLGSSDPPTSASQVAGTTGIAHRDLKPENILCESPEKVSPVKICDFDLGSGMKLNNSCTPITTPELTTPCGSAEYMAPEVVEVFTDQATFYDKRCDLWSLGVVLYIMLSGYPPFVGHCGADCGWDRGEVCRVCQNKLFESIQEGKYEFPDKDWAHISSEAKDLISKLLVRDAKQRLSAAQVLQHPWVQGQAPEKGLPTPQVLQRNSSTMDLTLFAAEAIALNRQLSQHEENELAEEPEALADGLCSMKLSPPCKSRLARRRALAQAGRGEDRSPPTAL

Set 1
Target: CEP164, C-terminal peptide (human)
Technique: DHFR complementation, deep sequencing
Medium: yeast
Notes: single substitutions, model-inferred values
Reference: wild type
Direction: higher = weaker binding
Starting sequence: PDZK1, PDZ domain 2 (human); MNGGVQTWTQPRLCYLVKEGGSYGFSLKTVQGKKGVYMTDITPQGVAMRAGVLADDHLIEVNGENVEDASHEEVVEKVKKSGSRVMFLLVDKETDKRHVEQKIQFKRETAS; partner HNRVKVYRF
| Change | binding free energy change [kJ/mol] |
| --- | --- |
| F105W | -1.13 |
| V5E | -0.31 |
| G21Q | 0.481 |
| V78L | 6.8 |
| G20L | 2.19 |
| V46F | 3.92 |
| N62A | 4.79 |
| E60P | 2.19 |

Set 2
Target: RING finger protein unkempt homolog, zinc fingers 1-6, GST-SBP tag (UNK, Homo sapiens, UniProt Q9C0B0, residues 30-357)
UniProt Q9C0B0, sequence (30-357, looked up): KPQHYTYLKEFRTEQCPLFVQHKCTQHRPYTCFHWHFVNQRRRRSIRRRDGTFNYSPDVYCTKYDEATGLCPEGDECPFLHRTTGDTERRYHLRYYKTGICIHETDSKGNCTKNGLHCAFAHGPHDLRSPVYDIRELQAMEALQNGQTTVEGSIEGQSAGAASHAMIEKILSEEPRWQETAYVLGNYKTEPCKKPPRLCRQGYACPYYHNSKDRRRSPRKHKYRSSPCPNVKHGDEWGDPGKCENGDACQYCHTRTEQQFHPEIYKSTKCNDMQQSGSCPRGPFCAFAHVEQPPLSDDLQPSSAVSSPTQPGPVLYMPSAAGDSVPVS
Technique: RNA Bind-n-Seq
Molecule type: RNA
Medium: in vitro
Concentration: not given
Notes: RNA with constant flanks, human-mouse chimeric sites, ends assumed
Reference: input RNA pool
Direction: higher = stronger binding
Constant ends, left off below: GGGAGUUCUACAGUCCGACGAUC … CAACAGAGGAUUGAGCAUCA
| Sequence | bound/input enrichment [ratio] |
| --- | --- |
| AAAGUGAUAACCAUGUUUGUCCAACGACAGGUAUUUUCGGAGAGCAAGGAUGAGAUUGCGUUAGUCCUCUAUGGCACAGAUGGCACUGAUAAUGCCCUUGCUGGCAAGGACCAGUAUCAG | 0.11 |
| ACACAAUAUGAGACCAACAGCAUGGACUUCAAAGUUGGGGCAGAUGGGACAGUCUUCGCCACCCGGGAGUUGAAGAUCCCCUCCGAGCAGGUGGCGUUCACGGUGACUGCGCGGGAAAGC | 0.175 |
| GUCAACAGCUGCCUCAAUCCCAUUCUCUACGCCUUCCUGGAUGAGAACUUCAAGGCCUGCUUCCGCAAGUUCUGCUGUGCUUCUGCCCUGCGCCGGGACGUGCAGGUGUCUGACCGCGUG | 0.426 |
| UUCAAAGAAAAGGGCAGCUGUGUCAUUUCAUAAGUAACUCUGGGGGAGGGAAAUUCUAACUAGUUUGUUAAUUUUCCCCCAAAUGAAGCCAAAGUGUUUUUUAAGGAACUGAGAAAAAAU | 0.302 |
| AGAGCCCAGGAUGUUGAUGCUACAAAUCCAAAUUAUGAAAUUAUGUGUAUGAUCAGAGACUUCAGAGGGAGCUUGGAUUACAGACCCCUAACAACAGCAGAUCCUAUUGAUGAACAUAGG | 0.426 |
| GAAACAUUUAAAUUUAAAGAAGCUGUUGUUCUAGGAAGUACGGACUUUCUAGAAGAUGAUAUAGAAAAAAUUGUAGAAGAACUGGGGAAAGAAUACAAGGGCAACGCCUACCAUCUGAUG | 1.39 |
| UCUUAACUUAUUCAUUUAACUUAUUUUUAUAGCUAGAGCAAUAUUGUUAGUCUUAGAGAGUAGUUCACAUUUUUUGAGAAGCAUGCCCUCCCUGUCCAUUUGUCUUAUAACAUGACCCAG | 20.7 |
| UGGCGCCUCCCAUUUUUACUCGUGUUUUUAAGUGUAUUUUUAUAAGAUACAUGUAUUUACAAUUGAGCUUUUGUUACAUAAUGCUGAAAUGCUACUGGAGAUUAUGAAAAAAUGUUAAAU | 0.291 |

Single results of other studies
| Structure (SMILES) | target or system | test | conditions | scale | measurement | value |
| --- | --- | --- | --- | --- | --- | --- |
| c1ccc(-c2n[nH]c3c2oc2ccccc23)cc1 | MAP kinase-interacting serine/threonine-protein kinase 1 (MKNK1, Homo sapiens, UniProt Q9BUB5) | enzyme activity, inhibitor | 0.5 µM | reference: control | remaining activity | 96.2% |
| C=C(c1ccc(C(=O)O)cc1)c1cc2c(cc1C)C(C)(C)CCC2(C)C | A-375 |  | 100 µM, 60 h |  | viability | 5.66% |

Excerpt of the above (set 2):
| Sequence | bound/input enrichment [ratio] |
| --- | --- |
| UGGCGCCUCCCAUUUUUACUCGUGUUUUUAAGUGUAUUUUUAUAAGAUACAUGUAUUUACAAUUGAGCUUUUGUUACAUAAUGCUGAAAUGCUACUGGAGAUUAUGAAAAAAUGUUAAAU | 0.291 |
| AAAGUGAUAACCAUGUUUGUCCAACGACAGGUAUUUUCGGAGAGCAAGGAUGAGAUUGCGUUAGUCCUCUAUGGCACAGAUGGCACUGAUAAUGCCCUUGCUGGCAAGGACCAGUAUCAG | 0.11 |
